# Experimental data gathered from unrelated publications.
# Values joined by “and” are separate records of one study, mostly repeats; a detail may differ. Numbers after ± are the reported error.
Compound,test,test system,setting,endpoint,value
CSCC[C@H](NC(=O)CNC(=O)[C@H](CCCCN)NC(=O)[C@H](CC(C)C)NC(=O)[C@@H]1CCCN1C(=O)[C@H](CO)NC(=O)[C@H](Cc1c[nH]cn1)NC(=O)[C@H](Cc1c[nH]c2ccccc12)NC(=O)[C@H](CCCNC(=N)N)NC(=O)[C@H](CC(C)C)NC(=O)[C@H](CCCNC(=N)N)NC(=O)[C@H](Cc1c[nH]c2ccccc12)NC(=O)[C@H](CS)NC(=O)CCCCCNC(=O)CN1CCN(CC(=O)O)CCN(CC(=O)O)CCN(CC(=O)O)CC1)C(=O)O [copper-64 labelled],,"C57BL/6J mice, B16-F10 tumour, blood","intravenous, 1.85 MBq, 18 h",tissue uptake,0.86 %ID/g
CC(C)[C@@H]1NC(=O)CNC(=O)[C@H](CC(N)=O)NC(=O)[C@H](CCCNC(=N)N)NC(=O)[C@H](Cc2ccc(O)cc2)NC(=O)[C@H](C(C)C)NC(=O)[C@@H](NC(=O)[C@@H](NC(=O)[C@H](CC(N)=O)NC(=O)[C@H](Cc2c[nH]c3ccccc23)NC(=O)[C@H](C)NC(=O)[C@H](Cc2ccccc2)NC(=O)CNC(=O)[C@H](CCCCN)NC(=O)[C@H](Cc2ccccc2)NC(=O)[C@H](Cc2ccccc2)NC(=O)[C@H](CCCCN)NC(=O)OCC2c3ccccc3-c3ccccc32)C(C)C)CSSC[C@@H](C(=O)N[C@@H](Cc2c[nH]cn2)C(=O)N[C@@H](CCCNC(=N)N)C(=O)N[C@@H](CCCNC(=N)N)C(=O)N[C@@H](C)C(=O)N[C@@H](CC(N)=O)C(N)=O)NC(=O)[C@H](C(C)C)NC(=O)[C@H](CCCNC(=N)N)NC1=O,,mouse mammary gland homogenate 50 mg/mL,"24.00 h, 37 °C",peptide remaining,36% and 42.1% and 40.8%
CC(C)[C@H](NC(=O)[C@H](Cc1c[nH]c2ccccc12)NC(=O)[C@H](CCCNC(=N)N)NC(=O)[C@H](CCCNC(=N)N)NC(=O)[C@@H](NC(=O)[C@@H](NC(=O)[C@H](CCCNC(=N)N)NC(=O)[C@@H](NC(=O)[C@@H](NC(=O)[C@H](CCCNC(=N)N)NC(=O)[C@H](CCCNC(=N)N)NC(=O)[C@@H](NC(=O)[C@H](Cc1c[nH]c2ccccc12)NC(=O)[C@H](CCCNC(=N)N)NC(=O)[C@H](CCCNC(=N)N)NC(=O)[C@@H](NC(=O)[C@H](CCCNC(=N)N)NC(=O)[C@H](CCCNC(=N)N)NC(=O)[C@@H](NC(=O)[C@H](Cc1c[nH]c2ccccc12)NC(=O)[C@H](CCCNC(=N)N)NC(=O)[C@@H](N)CCCNC(=N)N)C(C)C)C(C)C)C(C)C)C(C)C)C(C)C)C(C)C)C(C)C)C(=O)N[C@@H](CCCNC(=N)N)C(=O)N[C@@H](CCCNC(=N)N)C(=O)O,,mice,"intravenous, 15 mg/kg daily, 14 days, 5 doses",body weight change,4.8%
O=C1NC2(CC2)COc2ncc(F)cc2[C@H]2COCCN2c2ccn3ncc1c3n2,,"Sprague-Dawley rat, male, serum","oral, 2.5 mg/kg/day, 4 weeks daily, end of treatment",alkaline phosphatase activity,145 ± 34.3 U/L
COc1ccc([C@@H]2CC(=O)c3c(O)cc(O[C@@H]4O[C@H](CO)[C@@H](O)[C@H](O)[C@H]4O[C@@H]4O[C@@H](C)[C@H](O)[C@@H](O)[C@H]4O)cc3O2)cc1O,,"Sprague-Dawley rat, male, obese, faeces","oral, 100 mg/kg, 24-36 h",faecal excretion,511 ± 296 ng
CC(=O)N[C@H](C(=O)N[C@@H](CCCC(=O)OC(C)(C)C)C(=O)N[C@@H](CCC1CCCCC1)C(=O)N[C@@H](CC(=O)O)C(=O)COC(=O)c1c(C)cccc1C)C(C)(C)C,,"C57BL/6N mouse, female, whole blood","intraperitoneal, dose not given, 0.25 h",blood concentration,369 µM and 410 µM
CC(=O)NCCCC[C@@H]1NC(=O)[C@H](Cc2c[nH]c3c(C)cccc23)NC(=O)[C@H]([C@@H](C)O)NC(=O)[C@H](CC(N)=O)NC(=O)[C@@H](NC(C)=O)C(C)(C)SSC(C)(C)[C@@H](C(=O)N[C@@H](Cc2ccc(OCCN)cc2)C(=O)N[C@@H](Cc2ccc3ccccc3c2)C(=O)NC2(C(=O)N[C@@H](CCC(=O)O)C(=O)N[C@@H](CC(N)=O)C(=O)N[C@@H](Cc3cccnc3)C(=O)N(C)CC(N)=O)CCOCC2)NC1=O,,"cynomolgus monkey, patellar tendon","intravenous, 1 mg/kg",tissue to plasma ratio,113%
C=Cc1c(C)c2cc3nc(c(CC(=O)[O-])c4[n-]c(cc5nc(cc1[n-]2)C(C)=C5CC)c(C)c4C(=O)[O-])C(CCC(=O)[O-])C3C.[Cu+2].[Na+].[Na+].[Na+] (stereo not drawn),,"Wistar rat, male","oral, 250 mg/kg daily, 28 days",haemoglobin,14.8 ± 1.37 g/dL
CC[C@H](C)[C@H](NC(=O)[C@H](CCCCN)NC(=O)CNC(=O)[C@H](CC(C)C)NC(=O)[C@H](Cc1ccccc1)NC(=O)[C@H](CCCCN)NC(=O)[C@H](CO)NC(=O)[C@H](Cc1ccccc1)NC(=O)[C@H](Cc1c[nH]c2ccccc12)NC(=O)[C@H](CCC(N)=O)NC(=O)[C@@H](NC(=O)[C@H](Cc1ccccc1)NC(=O)CCCCCNC(=O)CN1CCN(CC(=O)O)CCN(CC(=O)O)CCN(CC(=O)O)CC1)C(C)C)C(=O)N[C@@H](CCC(=O)O)C(=O)N1CCC[C@H]1C(=O)N[C@@H](CC(=O)O)C(=O)N[C@H](C(=O)N[C@@H](CO)C(=O)N[C@@H](CCC(N)=O)C(=O)N[C@H](C(=O)N[C@@H](CCC(N)=O)C(=O)N[C@@H](CC(=O)O)C(=O)N1CCC[C@H]1C(=O)N[C@@H](CC(N)=O)C(=O)N[C@@H](CC(=O)O)C(=O)N[C@@H](CCC(N)=O)C(=O)N[C@@H](Cc1ccc(O)cc1)C(=O)N[C@@H](CCC(=O)O)C(=O)N1CCC[C@H]1C(=O)N[C@@H](Cc1ccccc1)C(=O)O)C(C)C)C(C)C [copper-64 labelled],,"BALB/c mice, male, CT26 tumour-bearing, brain","2 h, anti-PD1 plus anti-CTLA4 treated",tissue uptake,0.12 ± 0.01 %ID/g
N=C(N)NCCC[C@@H](NC(=O)[C@H](N)Cc1c[nH]c2ccccc12)C(=O)N[C@H](CCCCN)C(=O)N[C@H](Cc1c[nH]c2ccccc12)C(=O)N[C@H](CCCNC(=N)N)C(=O)N[C@H](CCCCN)C(=O)N[C@H](Cc1c[nH]c2ccccc12)C(=O)N[C@H](CCCNC(=N)N)C(=O)N[C@H](CCCCN)C(=O)N[C@H](Cc1c[nH]c2ccccc12)C(=O)N[C@H](CCCNC(=N)N)C(=O)N[C@H](CCCCN)C(N)=O,,"mouse, lung","intravenous, 30 mg/kg single dose, 7 days",organ index,0.73
CC1(C)C(=O)N(c2ccc(C#N)c(C(F)(F)F)c2)C(=S)N1c1ccc(C(=O)O)c(F)c1,,"male human, plasma","oral, 160 mg, single dose, fasted",Tmax,96 h
Cc1ccc(OCC(=O)N(Cc2cccs2)c2ccn[nH]2)cc1,in vivo micronucleus,"Crl:CD-1(ICR) mice, female, bone marrow polychromatic erythrocytes","oral, 2000 mg/kg/day, 3 days",micronucleated PCEs,0.01 ± 0.02%
CCCCCCCCCCCCCCCC(=O)N[C@@H](CCC(=O)NCCOCCOCCC(=O)NCCOCCOCCC(=O)NCCCC[C@H](NC(=O)[C@H](CC(=O)O)NC(=O)[C@H](CC(C)C)NC(=O)[C@H](Cc1ccc(O)cc1)NC(=O)[C@H](CCCCN)NC(=O)[C@H](CO)NC(=O)[C@H](Cc1ccc(O)cc1)NC(=O)[C@H](CC(=O)O)NC(=O)[C@H](CO)NC(=O)[C@@H](NC(=O)[C@H](Cc1ccccc1)NC(=O)[C@@H](NC(=O)CNC(=O)[C@H](CCC(N)=O)NC(=O)[C@@H](CO)NC(=O)[C@@H](N)Cc1c[nH]cn1)[C@@H](C)O)[C@@H](C)O)C(=O)N[C@@H](CCCNC(=N)N)C(=O)N[C@@H](CCCNC(=N)N)C(=O)N[C@@H](C)C(=O)N[C@@H](CCC(N)=O)C(=O)N[C@@H](CC(=O)O)C(=O)N[C@@H](Cc1ccccc1)C(=O)N[C@H](C(=O)N[C@@H](CCC(N)=O)C(=O)N[C@@H](Cc1c[nH]c2ccccc12)C(=O)N[C@@H](CC(C)C)C(=O)N[C@@H](CC(C)C)C(=O)N[C@@H](CC(N)=O)C(=O)N[C@H](C(=O)NCC(=O)NCC(=O)N1CCC[C@H]1C(=O)N[C@@H](CO)C(=O)N[C@@H](CO)C(=O)NCC(=O)N[C@@H](C)C(=O)N1CCC[C@H]1C(=O)N1CCC[C@H]1C(=O)N1CCC[C@H]1C(=O)N[C@@H](CO)C(N)=O)[C@@H](C)O)C(C)C)C(=O)O,,"rhesus monkey, male","subcutaneous, 60 µg/kg once daily, 28 days",total cholesterol,2.21 ± 0.44 mmol/L
CCCCCCCCCCCCCCCC(=O)OCC(CSC[C@H](N)C(=O)N[C@@H](CO)C(=O)N[C@@H](CCCCN)C(=O)N[C@@H](CCCCN)C(=O)N[C@@H](CCCCN)C(=O)N[C@@H](CCCCN)C(=O)NCCCCCC(=O)N[C@@H](CCCCN)C(=O)N[C@@H](CC(C)C)C(=O)N[C@H](C(=O)N[C@@H](Cc1ccccc1)C(=O)N[C@@H](Cc1ccccc1)C(=O)N[C@@H](Cc1ccc2ccccc2c1)C(=O)O)C(C)C)OC(=O)CCCCCCCCCCCCCCC (stereo partly drawn),,"C57BL/6J mouse, serum","intraperitoneal, dose not given",serum AST,77 U/L and 113 U/L and 76 U/L
COCCCCNC(=O)CC(Cc1ccc(F)cc1)NC(=O)C(Cc1ccc(Cl)cc1Cl)NC(=O)C(N)Cc1ccccc1C#N (stereo not drawn),,"CD-1 mouse, liver microsomes","1 µM, time not given, epoxide hydrolase conditions",remaining compound,51%
CCc1nn(C)c2nc(-c3ccc(C(=O)O)cc3)nc(NCc3ccccc3)c12,,"male CD-1 mouse, plasma","oral, 10 mg/kg, 4 h",concentration,0.714 µg/mL
C=CC(=O)Nc1cccc(Cn2ncc3cnc(Nc4cnn(CCOC)c4)nc32)c1,,male Sprague-Dawley rat,"oral, 180 mg/kg/day, day 28, 28-day subacute toxicity",blood PDW,15.8 ± 0.23 fL
C=Cc1c(C)c2cc3nc(c(CC(=O)O)c4[nH]c(cc5nc(cc1[nH]2)C(C)=C5CC)c(C)c4C(=O)O)[C@@H](CCC(=O)NCCCC[C@H](NC(C)=O)C(=O)N[C@@H](Cc1ccccc1)C(=O)N[C@@H](Cc1ccccc1)C(=O)N[C@H](C(=O)N[C@@H](CC(C)C)C(=O)N[C@@H](CCCCN)C(=O)N[C@@H](CO)C(=O)NCC(=O)N[C@@H](CCC(N)=O)C(=O)N[C@@H](Cc1ccc(O)cc1)C(=O)N[C@@H](C)C(=O)N[C@@H](CO)C(=O)N[C@@H](Cc1ccc(O)cc1)C(=O)N[C@@H](Cc1c[nH]cn1)C(=O)N[C@@H](CS)C(=O)N[C@@H](Cc1c[nH]c2ccccc12)C(=O)N[C@@H](CS)C(=O)N[C@@H](Cc1c[nH]c2ccccc12)C(=O)N[C@@H](CCCNC(=N)N)C(=O)N[C@@H](CC(=O)O)C(=O)N1CCC[C@H]1C(=O)NCC(=O)N[C@@H](CCCNC(=N)N)C(=O)N[C@@H](CO)C(=O)NCC(=O)NCC(=O)N[C@@H](CO)C(=O)N[C@@H](CCCCN)C(N)=O)C(C)C)[C@@H]3C,,"mouse, blood",6 h,blood concentration,91.8 µg/mL and 109 µg/mL
